Measured values gathered from unrelated publications.
Every numbered part comes from another study and shows a few of its results, in no order.

Series 1
Target: Interferon regulatory factor 7, full length, phosphomimetic (IRF7, Homo sapiens, UniProt Q92985, residues 1-503, S471D/S472D/S475D/S476D/S477D/S483D/S484D/S487D)
Technique: protein-binding microarray
Form: double-stranded DNA, one strand shown
Medium: in vitro
Concentration: 2200 nM top
Notes: 60-bp whole probe
With: salmon DNA 0.4 mg/ml
Reference: random background probes
Reading: higher = stronger binding
Construct (chain): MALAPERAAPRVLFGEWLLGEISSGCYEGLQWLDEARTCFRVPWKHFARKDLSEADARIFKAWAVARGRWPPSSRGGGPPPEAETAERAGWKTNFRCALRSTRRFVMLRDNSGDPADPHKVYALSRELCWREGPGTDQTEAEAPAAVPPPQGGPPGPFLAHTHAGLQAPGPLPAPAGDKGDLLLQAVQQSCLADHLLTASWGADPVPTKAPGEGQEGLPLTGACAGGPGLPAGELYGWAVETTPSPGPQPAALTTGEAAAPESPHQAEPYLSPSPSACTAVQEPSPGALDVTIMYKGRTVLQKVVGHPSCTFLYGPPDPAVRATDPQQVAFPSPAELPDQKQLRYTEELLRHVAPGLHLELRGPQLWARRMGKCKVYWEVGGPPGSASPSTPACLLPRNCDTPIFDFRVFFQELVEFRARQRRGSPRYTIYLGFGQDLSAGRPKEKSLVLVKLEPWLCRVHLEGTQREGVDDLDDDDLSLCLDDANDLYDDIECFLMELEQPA
`GCCTAGCACTTCGGTTTCGACTTTCGGTTAGTGCTAGTCTTGATTCGCTTGACGCTGCTG`: “fitted relative affinity” 12.5 z-score.
For `GCCTAGCACTTTGATCTCAGTATCGATTAGTGCTAGGTCTTGATTCGCTTGACGCTGCTG`, “fitted relative affinity” read 0.714 z-score.
For `GCCTAGCACGACGGTTTCGGACCGGGGACGTGCTAGGTCTTGATTCGCTTGACGCTGCTG`, “fitted relative affinity” read 2.38 z-score.
`GCCTAGCACTTAGGTATCTGTTTCGGTTAGTGCTAGGTCTTGATTCGCTTGACGCTGCTG` — result for “fitted relative affinity”: 4.71 z-score.

Series 2
Target: Sal-like protein 4, full length isoform B (SALL4, Homo sapiens, UniProt Q9UJQ4-2, residues 1-616)
Technique: universal PBM
Form: double-stranded DNA, one strand shown
Medium: in vitro
Concentration: not given
Notes: 8-mer, flanks averaged, mean of replicates
Reading: higher = stronger binding
Residues (chain): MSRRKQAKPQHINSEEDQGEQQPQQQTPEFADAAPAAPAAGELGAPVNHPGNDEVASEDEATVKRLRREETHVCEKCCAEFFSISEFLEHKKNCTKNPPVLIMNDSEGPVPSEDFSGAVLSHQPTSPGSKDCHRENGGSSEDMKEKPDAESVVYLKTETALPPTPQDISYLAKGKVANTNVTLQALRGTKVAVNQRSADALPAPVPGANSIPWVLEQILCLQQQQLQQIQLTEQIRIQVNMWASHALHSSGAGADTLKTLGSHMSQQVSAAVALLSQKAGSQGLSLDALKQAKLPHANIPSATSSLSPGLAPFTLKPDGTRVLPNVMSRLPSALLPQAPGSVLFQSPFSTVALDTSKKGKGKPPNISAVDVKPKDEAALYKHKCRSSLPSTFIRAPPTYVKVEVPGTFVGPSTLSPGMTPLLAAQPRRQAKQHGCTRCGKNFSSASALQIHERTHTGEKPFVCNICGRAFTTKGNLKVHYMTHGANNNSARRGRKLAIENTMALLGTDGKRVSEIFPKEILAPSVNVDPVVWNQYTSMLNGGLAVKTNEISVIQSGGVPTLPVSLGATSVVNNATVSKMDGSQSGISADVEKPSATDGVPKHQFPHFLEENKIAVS
`ACTCCAGC` has an E-score of -0.213.
For `GTCCAGAC`, the E-score was -0.285.
`CTTTCTTA` has an E-score of 0.0489.
`GGGCGTCA` gave an E-score of -0.21.

Series 3
Target: Histone acetyltransferase KAT6A, winged helix 2, GST fusion (KAT6A, Homo sapiens, UniProt Q92794, residues 85-181)
Technique: protein binding microarray
Form: double-stranded DNA, one strand shown
Medium: in vitro
Concentration: not given
Notes: 8-mer, flanks averaged, mean of 2 arrays, mostly near background
Reference: not given
Reading: higher = stronger binding
Residues (chain): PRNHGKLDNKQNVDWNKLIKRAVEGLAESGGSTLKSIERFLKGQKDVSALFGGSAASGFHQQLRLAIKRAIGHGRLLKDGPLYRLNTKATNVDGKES
For `AGCATTGG`, the E-score was -0.0719.
For `ATGGTTTG`, the E-score was 0.0376.
With `GCGGCTCC` the E-score was -0.0315.
For `GCGCTCAC`, the E-score was 0.0413.
With `CTAGAGAC` the E-score was -0.191.

Single results of other studies
With `PhoQ, residues 284 288 289 292 302 303 SSTLSG` the fold induction was 2.2 (PhoP, residues 12 14 15 18 19 AWHSL (Escherichia coli, UniProt P23836); Sort-seq, refers to: YFP reporter; E. coli; PhoQ-PhoP variant library, with: 10 µM Mg2+; reference: high Mg2+ state, higher = stronger signaling).

Repeated from above (series 1):
`GCCTAGCACTTCGGTTTCGACTTTCGGTTAGTGCTAGTCTTGATTCGCTTGACGCTGCTG`: “fitted relative affinity” 12.5 z-score.
